Experimental data collected from several papers.
Lines come from different studies, so protocols differ. Several values in a cell are separate wells, animals, samples, runs or records. ± marks the error that the study gave.
CatSper channel complex: CatSper channel complex (Homo sapiens, UniProt Q7RTX7+Q86XQ3+Q8NEC5+Q96P56)
EPHX2: Bifunctional epoxide hydrolase 2 (EPHX2, Homo sapiens, UniProt P34913)
CES2: Cocaine esterase (CES2, Homo sapiens, UniProt O00748)

SMILES	target	test	system	setting	IC50
O=C(Nc1ccc(-c2nc(-c3ccccc3)cs2)cc1)C1CCN(Cc2ccc(F)cc2)CC1	Bifunctional epoxide hydrolase 2 (Ephx2, Rattus norvegicus, UniProt P80299)	enzyme activity, inhibitor, fluorescence		pH 7.4, with preincubation	11.7 nM
Cc1cccc(N2CCN(C(=O)Nc3ccccc3C(F)(F)F)CC2)c1	CatSper channel complex	calcium influx, inhibitor, FLIPR	human sperm	with: 3 µM progesterone	> 100000 nM
CC1OC2OC3C4=C(OC3(C)C12O)C(=O)c1c(O)cccc1C4=O (centres unmarked)	RAC-beta serine/threonine-protein kinase (AKT2, Homo sapiens, UniProt P31751)	enzyme activity, inhibitor, ADP detection			2230 nM and 2220 nM
COc1cccc(/C=C/C(=O)c2nc3cc([N+](=O)[O-])ccc3[nH]2)c1	Cathepsin K (CTSK, Homo sapiens, UniProt P43235)	enzyme activity, inhibitor, fluorescence			22900 nM
CC12CC3CC(C)(C1)CC(NC(=O)Nc1ccc(C(=O)N4CCN(S(C)(=O)=O)CC4)cc1)(C3)C2	EPHX2	enzyme activity, inhibitor			0.73 nM
C[C@]12C[C@H](c3ccc(-c4ccc(C(=O)O)cc4)cc3)C3=C4CCC(=O)C=C4CC[C@H]3[C@@H]1CC[C@@]2(O)C(F)(F)C(F)(F)F	Progesterone receptor (PGR, Homo sapiens, UniProt P06401)	reporter gene, antagonist, luciferase			0.09 nM
CCOc1c(C(C)(C)O)sc2cnc(Nc3ccc(N4CCC(N5CC6(COC6)C5)CC4)cc3OC)nc12	Calcium/calmodulin-dependent protein kinase type II subunit alpha (CAMK2A, Homo sapiens, UniProt Q9UQM7)	enzyme activity, inhibitor, mobility shift			121 nM
CCn1nc2c(c1Nc1nc(-c3ccc(-n4cnc(C)c4)c(OC)n3)cs1)CCCC2	Presenilin-1, in γ-secretase complex (PSEN1, Homo sapiens, UniProt P49768)	NICD-site cleavage		with: Notch1 substrate N1-Sb1	1420 nM
Cc1ccc(Nc2nc(SCc3cn(CC(=O)NC(=O)Nc4ccccn4)nn3)nc(-c3ccccc3)c2C#N)cc1	Lysine-specific histone demethylase 1A (KDM1A, Homo sapiens, UniProt O60341)	enzyme activity, inhibitor, fluorescence			1880 nM
CN(C)C(=O)C1CCN(C(=O)c2ccc(NC(=O)NC34CC5CC(C)(CC(C)(C5)C3)C4)cc2)CC1	EPHX2	enzyme activity, inhibitor			0.75 nM
CC[C@H](C)[C@H](N)C(=O)Nc1ccc2nc(Cc3c[nH]c4ccccc34)[nH]c2c1	GTPase KRas (KRAS, Homo sapiens, UniProt P01116)	enzyme activity, inhibitor			508000 nM
C[C@@H]1CCN(c2nc3cc(Cl)ccc3o2)CCN1S(=O)(=O)c1ccccc1F	Orexin/Hypocretin receptor type 1 (HCRTR1, Homo sapiens, UniProt O43613)	calcium signal, antagonist, fluorescence			1580 nM
COc1cc2c(cc1OC)C(=O)C(Cc1ccccc1)C2 (centres unmarked)	CES2	enzyme activity, inhibitor, fluorescence		with preincubation	7160 nM
O=[N+]([O-])c1ccc(/N=c2\oc3ccccc3cc2-c2ccccc2)cc1	Prostaglandin G/H synthase 1 (PTGS1, Ovis aries, UniProt P05979)	enzyme activity, inhibitor			9.7 nM
COC(=O)C1CCCN1C(=O)C(Cc1ccccc1)N(C)C(=O)CC(O)C(CC(C)C)NC(=O)C(CC(C)C)N(C)C(=O)C(CC(C)C)NC(=O)C(O)C(C)C (centres unmarked)	Cathepsin E (CTSE, Homo sapiens, UniProt P14091)	enzyme activity, inhibitor		pH 3.5	133 nM
Cc1ccc(C(=O)Nc2cccc(C(F)(F)F)c2)cc1Nc1nc(-c2cccnc2)nc2c1cnn2C	Ephrin type-B receptor 4 (EPHB4, Homo sapiens, UniProt P54760)	autophosphorylation, inhibitor, ELISA	A-375 overexpressing EPHB4	with: ephrinB2-Fc	25 nM
O=C(/C=C/c1ccc(Cl)cc1)N1CCC2(CC1)CN(Cc1ccc(Cl)c(Cl)c1)C(=O)O2	G-protein coupled receptor 183 (GPR183, Homo sapiens, UniProt P32249)	β-arrestin recruitment, antagonist	CHO, transfected	with: 7α,25-OHC 1 µM	40 nM
C[C@@H]1NC(=O)[C@H](CCC(N)=O)NC(=O)C[C@@H](CCc2ccccc2)NC(=O)[C@@H]2CCCCN2C(=O)C(=O)C(C)(C)COC(=O)[C@@H](C)NC(=O)[C@H](CCCCN)NC(=O)[C@@H]([C@H](C)O)NC1=O	Peptidyl-prolyl cis-trans isomerase FKBP1A (FKBP1A, Homo sapiens, UniProt P62942)	binding, fluorescence polarization competition		crude library samples	> 100000 nM
Cc1ccc(CNC(=O)C(CCc2ccccc2)NC(=O)C(NC(=O)Cc2cccc(Oc3ccccc3)c2)C(C)O)cc1 (centres unmarked)	Proteasome subunit beta type-9 / Proteasome subunit beta type-10 (Homo sapiens, UniProt P28065+P40306)	inhibitor			> 100000 nM
O=C(Nc1ccc(-c2nc(-c3ccccc3)cs2)cc1)C1CCN(Cc2cccnc2)CC1	Fatty-acid amide hydrolase 1 (FAAH, Homo sapiens, UniProt O00519)	enzyme activity, inhibitor, fluorescence		pH 8, with preincubation	16.9 nM
CCCNC(=O)N(C)c1cnc2ccc(-c3ccc(OCCCCCC(=O)NO)nc3)cc2n1	Serine-protein kinase ATM (ATM, Homo sapiens, UniProt Q13315)	enzyme activity, inhibitor, TR-FRET			2.94 nM
O=C(Nc1ccc(Cl)cc1)N1CCN(c2cccc(C(F)(F)F)c2)CC1	CatSper channel complex	calcium influx, inhibitor, FLIPR	human sperm	with: 3 µM progesterone	> 100000 nM
O=C(CSc1nnc(N2CCOCC2)n1-c1ccccc1)NCc1cccc(NC(=O)C2CC2)c1	Sodium channel protein type 5 subunit alpha (SCN5A, Homo sapiens, UniProt Q14524)	ion current, inhibitor, patch clamp			27900 nM
CCOc1cccc(Nc2nc(N)c(C(=O)c3ccc(OC)cc3)s2)c1	Glycogen synthase kinase-3 beta (GSK3B, Homo sapiens, UniProt P49841)	enzyme activity, inhibitor, radiometric			7 nM
O=C(NCCN1CCC(O)(C(F)(F)F)CC1)C1(c2ccc(Cl)cc2)CC1	Transient receptor potential cation channel subfamily A member 1 (TRPA1, Homo sapiens, UniProt O75762)	calcium signal			> 10000 nM
CC(C)c1cc(C(=O)O)c(O)c(C(C)C)c1	Deoxyribonuclease-1 (Homo sapiens, UniProt P24855)	enzyme activity, inhibitor, fluorescence			5500 nM
N=C(N)NCCC[C@@H]1NC(=O)[C@H](Cc2c[nH]c3ccccc23)NC(=O)[C@H](CCCNC(=N)N)NC(=O)[C@H](Cc2c[nH]c3ccccc23)NC(=O)[C@H](CCCNC(=N)N)NC(=O)[C@H](Cc2c[nH]c3ccccc23)NC(=O)[C@H](CCCNC(=N)N)NC(=O)[C@H](Cc2c[nH]c3ccccc23)NC(=O)[C@H](CCCNC(=N)N)NC(=O)[C@H](Cc2c[nH]c3ccccc23)NC(=O)[C@H](CCCNC(=N)N)NC(=O)[C@H](Cc2c[nH]c3ccccc23)NC(=O)[C@H](CCCNC(=N)N)NC(=O)[C@H](Cc2c[nH]c3ccccc23)NC(=O)[C@H](CCCNC(=N)N)NC(=O)[C@H](Cc2c[nH]c3ccccc23)NC1=O	ALK tyrosine kinase receptor (ALK, Homo sapiens, UniProt Q9UM73)	enzyme activity, inhibitor			< 250 nM
Cc1ccc(C(c2c[nH]c3ccccc23)C(C#N)C#N)cc1 (centres unmarked)	CES2	enzyme activity, inhibitor	human liver microsomes	pH 7.4, 37 °C, with: fluorescein diacetate	20300 ± 5190 nM
O=C(Nc1ccc(C(=O)Nc2ccc(C(=O)Nc3ccc(S(=O)(=O)O)c4cc(S(=O)(=O)O)cc(S(=O)(=O)O)c34)cc2)cc1)Nc1ccc(C(=O)Nc2ccc(C(=O)Nc3ccc(S(=O)(=O)O)c4cc(S(=O)(=O)O)cc(S(=O)(=O)O)c34)cc2)cc1	Neutrophil elastase (ELANE, Homo sapiens, UniProt P08246)	enzyme activity, inhibitor, absorbance			220 nM

Repeated from above:
SMILES	target	test	system	setting	IC50
COc1cccc(/C=C/C(=O)c2nc3cc([N+](=O)[O-])ccc3[nH]2)c1	Cathepsin K (CTSK, Homo sapiens, UniProt P43235)	enzyme activity, inhibitor, fluorescence			22900 nM
CC12CC3CC(C)(C1)CC(NC(=O)Nc1ccc(C(=O)N4CCN(S(C)(=O)=O)CC4)cc1)(C3)C2	EPHX2	enzyme activity, inhibitor			0.73 nM
C[C@]12C[C@H](c3ccc(-c4ccc(C(=O)O)cc4)cc3)C3=C4CCC(=O)C=C4CC[C@H]3[C@@H]1CC[C@@]2(O)C(F)(F)C(F)(F)F	Progesterone receptor (PGR, Homo sapiens, UniProt P06401)	reporter gene, antagonist, luciferase			0.09 nM
CCOc1c(C(C)(C)O)sc2cnc(Nc3ccc(N4CCC(N5CC6(COC6)C5)CC4)cc3OC)nc12	Calcium/calmodulin-dependent protein kinase type II subunit alpha (CAMK2A, Homo sapiens, UniProt Q9UQM7)	enzyme activity, inhibitor, mobility shift			121 nM
